Published values gathered from unrelated publications.
A part holds a random share of what one study measured.
Sequence of UniProt O75676 (whole entry, looked up): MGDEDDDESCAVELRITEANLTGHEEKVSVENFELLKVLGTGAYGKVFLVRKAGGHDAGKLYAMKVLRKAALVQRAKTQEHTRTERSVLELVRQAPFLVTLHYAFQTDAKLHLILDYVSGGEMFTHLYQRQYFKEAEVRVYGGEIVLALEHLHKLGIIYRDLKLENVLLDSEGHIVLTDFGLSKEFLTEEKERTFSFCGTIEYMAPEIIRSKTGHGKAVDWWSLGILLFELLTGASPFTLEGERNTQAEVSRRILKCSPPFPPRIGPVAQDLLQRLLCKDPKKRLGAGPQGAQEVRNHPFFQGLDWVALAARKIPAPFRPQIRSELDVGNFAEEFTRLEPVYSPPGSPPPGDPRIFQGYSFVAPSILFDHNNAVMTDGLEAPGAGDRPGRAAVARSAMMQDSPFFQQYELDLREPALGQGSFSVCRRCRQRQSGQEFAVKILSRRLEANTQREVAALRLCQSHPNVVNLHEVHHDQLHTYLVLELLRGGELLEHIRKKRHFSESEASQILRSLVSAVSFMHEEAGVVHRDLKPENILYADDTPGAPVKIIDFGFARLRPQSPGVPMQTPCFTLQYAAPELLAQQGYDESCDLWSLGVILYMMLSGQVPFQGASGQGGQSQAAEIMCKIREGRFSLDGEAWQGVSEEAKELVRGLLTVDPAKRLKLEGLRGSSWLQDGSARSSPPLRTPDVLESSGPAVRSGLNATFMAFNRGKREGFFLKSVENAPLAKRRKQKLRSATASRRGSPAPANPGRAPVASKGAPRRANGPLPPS
Sequence of UniProt Q9UEE5 (whole entry, looked up): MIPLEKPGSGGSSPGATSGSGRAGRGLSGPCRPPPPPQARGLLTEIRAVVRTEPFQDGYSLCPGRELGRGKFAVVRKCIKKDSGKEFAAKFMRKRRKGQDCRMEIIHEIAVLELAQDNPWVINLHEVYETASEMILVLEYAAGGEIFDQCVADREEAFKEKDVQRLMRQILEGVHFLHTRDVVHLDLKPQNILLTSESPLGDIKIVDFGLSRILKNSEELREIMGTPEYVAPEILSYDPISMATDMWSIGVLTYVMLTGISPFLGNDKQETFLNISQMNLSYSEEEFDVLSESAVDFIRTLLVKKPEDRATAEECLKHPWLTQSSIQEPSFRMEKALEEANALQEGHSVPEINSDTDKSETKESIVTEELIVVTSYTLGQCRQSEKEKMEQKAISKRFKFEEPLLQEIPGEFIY
Sequence of UniProt Q8NG66 (whole entry, looked up): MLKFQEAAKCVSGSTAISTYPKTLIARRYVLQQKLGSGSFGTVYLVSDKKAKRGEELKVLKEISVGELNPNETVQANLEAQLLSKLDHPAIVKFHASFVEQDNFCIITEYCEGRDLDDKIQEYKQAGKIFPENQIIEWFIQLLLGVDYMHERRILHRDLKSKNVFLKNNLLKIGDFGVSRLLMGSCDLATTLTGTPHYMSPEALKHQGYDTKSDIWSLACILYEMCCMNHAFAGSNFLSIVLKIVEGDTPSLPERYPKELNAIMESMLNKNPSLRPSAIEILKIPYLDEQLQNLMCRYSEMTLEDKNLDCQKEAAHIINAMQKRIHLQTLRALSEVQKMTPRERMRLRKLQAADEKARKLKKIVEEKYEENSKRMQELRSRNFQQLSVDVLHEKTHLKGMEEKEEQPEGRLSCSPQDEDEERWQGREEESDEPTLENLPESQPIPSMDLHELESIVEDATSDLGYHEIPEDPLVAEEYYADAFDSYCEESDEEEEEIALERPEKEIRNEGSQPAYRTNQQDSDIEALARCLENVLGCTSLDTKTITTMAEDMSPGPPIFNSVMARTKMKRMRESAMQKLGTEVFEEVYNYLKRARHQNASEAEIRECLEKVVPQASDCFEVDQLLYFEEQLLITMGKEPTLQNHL
Sequence of UniProt Q9Y2I7 (whole entry, looked up): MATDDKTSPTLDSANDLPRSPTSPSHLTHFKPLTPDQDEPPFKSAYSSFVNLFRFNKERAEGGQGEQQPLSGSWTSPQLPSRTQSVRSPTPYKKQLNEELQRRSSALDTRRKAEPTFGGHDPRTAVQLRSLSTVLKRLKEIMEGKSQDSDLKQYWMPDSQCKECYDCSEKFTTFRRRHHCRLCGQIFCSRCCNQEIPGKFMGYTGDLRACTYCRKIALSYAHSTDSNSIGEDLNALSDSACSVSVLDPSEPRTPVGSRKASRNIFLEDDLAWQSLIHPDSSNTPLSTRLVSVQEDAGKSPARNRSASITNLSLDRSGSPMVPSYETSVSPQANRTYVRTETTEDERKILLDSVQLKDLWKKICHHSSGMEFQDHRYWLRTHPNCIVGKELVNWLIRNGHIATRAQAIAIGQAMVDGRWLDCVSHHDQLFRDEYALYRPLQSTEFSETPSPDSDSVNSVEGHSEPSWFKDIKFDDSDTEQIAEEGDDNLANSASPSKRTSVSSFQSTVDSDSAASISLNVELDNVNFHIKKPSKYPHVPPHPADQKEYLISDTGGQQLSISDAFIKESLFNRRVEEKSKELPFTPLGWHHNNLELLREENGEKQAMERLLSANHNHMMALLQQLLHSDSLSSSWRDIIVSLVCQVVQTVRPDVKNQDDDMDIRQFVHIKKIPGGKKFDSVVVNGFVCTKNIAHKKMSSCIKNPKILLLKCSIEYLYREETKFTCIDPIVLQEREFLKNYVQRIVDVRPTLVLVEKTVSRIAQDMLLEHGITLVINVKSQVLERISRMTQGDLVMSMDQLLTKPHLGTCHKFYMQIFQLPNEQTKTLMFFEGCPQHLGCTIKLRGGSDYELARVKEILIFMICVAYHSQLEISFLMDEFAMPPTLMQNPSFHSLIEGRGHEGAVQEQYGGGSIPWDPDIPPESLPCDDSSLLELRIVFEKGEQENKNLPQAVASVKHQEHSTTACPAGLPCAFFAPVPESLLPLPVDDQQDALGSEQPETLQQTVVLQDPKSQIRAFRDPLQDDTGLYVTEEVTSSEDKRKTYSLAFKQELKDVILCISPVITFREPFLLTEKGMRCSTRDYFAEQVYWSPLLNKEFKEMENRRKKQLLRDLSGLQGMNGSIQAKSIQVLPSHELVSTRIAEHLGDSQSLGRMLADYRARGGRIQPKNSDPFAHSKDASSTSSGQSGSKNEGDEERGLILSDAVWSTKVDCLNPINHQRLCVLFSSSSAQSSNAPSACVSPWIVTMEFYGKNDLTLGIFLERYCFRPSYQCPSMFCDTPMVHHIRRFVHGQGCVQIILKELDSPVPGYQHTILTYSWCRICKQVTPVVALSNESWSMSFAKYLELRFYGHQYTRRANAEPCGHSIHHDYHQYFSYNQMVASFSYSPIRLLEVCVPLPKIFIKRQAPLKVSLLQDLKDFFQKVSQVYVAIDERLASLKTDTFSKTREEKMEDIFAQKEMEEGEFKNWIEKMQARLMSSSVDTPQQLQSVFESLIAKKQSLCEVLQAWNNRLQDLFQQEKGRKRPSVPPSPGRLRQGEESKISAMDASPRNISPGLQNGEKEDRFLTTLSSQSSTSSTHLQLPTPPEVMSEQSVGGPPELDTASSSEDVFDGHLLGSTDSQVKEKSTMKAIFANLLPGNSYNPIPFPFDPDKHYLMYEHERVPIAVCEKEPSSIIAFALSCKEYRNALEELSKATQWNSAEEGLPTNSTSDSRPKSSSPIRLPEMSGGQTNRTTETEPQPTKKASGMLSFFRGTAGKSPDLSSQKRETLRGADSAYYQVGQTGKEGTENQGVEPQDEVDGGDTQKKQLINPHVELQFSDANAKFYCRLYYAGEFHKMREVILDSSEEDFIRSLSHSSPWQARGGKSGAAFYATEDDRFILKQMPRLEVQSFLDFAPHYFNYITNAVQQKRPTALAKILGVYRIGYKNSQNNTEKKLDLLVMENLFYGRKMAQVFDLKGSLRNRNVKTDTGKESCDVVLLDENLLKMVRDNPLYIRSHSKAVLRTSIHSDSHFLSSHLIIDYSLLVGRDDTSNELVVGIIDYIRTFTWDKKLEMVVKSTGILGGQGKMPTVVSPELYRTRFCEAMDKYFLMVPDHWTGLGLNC
Sequence of UniProt Q15349 (whole entry, looked up): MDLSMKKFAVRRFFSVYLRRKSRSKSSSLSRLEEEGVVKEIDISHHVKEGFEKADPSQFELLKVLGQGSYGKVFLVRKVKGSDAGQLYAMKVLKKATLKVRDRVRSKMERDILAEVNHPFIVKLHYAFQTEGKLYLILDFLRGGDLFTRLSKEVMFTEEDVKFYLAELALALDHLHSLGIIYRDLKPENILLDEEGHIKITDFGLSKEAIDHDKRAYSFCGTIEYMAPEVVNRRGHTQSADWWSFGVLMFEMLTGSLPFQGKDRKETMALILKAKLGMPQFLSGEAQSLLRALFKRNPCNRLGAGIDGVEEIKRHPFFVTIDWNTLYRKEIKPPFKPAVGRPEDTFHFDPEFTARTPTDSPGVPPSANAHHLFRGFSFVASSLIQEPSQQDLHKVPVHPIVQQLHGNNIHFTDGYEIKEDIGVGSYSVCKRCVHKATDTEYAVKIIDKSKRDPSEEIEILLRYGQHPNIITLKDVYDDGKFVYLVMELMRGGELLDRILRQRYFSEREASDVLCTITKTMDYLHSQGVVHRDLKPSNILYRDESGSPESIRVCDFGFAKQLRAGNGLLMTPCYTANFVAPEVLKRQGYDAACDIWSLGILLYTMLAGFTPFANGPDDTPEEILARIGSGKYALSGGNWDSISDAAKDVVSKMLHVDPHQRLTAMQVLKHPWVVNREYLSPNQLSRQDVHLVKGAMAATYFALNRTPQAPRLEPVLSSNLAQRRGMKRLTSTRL
Sequence of UniProt Q96PF2 (whole entry, looked up): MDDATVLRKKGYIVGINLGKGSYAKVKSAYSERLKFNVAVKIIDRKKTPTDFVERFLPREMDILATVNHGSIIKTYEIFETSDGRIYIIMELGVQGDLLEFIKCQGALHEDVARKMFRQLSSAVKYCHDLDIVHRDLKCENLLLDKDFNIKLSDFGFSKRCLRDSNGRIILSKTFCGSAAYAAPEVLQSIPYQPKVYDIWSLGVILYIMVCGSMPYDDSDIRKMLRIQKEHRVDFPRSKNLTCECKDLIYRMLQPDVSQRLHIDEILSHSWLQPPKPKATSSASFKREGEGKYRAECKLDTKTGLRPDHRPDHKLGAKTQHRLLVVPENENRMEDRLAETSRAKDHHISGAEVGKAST

Block 1
Compound: c1ccc(-c2n[nH]c3c2oc2ccccc23)cc1
Observed: enzyme activity
Mode: inhibitor
Tested at: 0.5 µM
Relative to: control
It gave 91.6% for remaining activity (Cyclin-dependent kinase 6, with cyclin D3 (CDK6, Homo sapiens, UniProt Q00534)).
EPHB4 (Homo sapiens, UniProt P54760) — remaining activity: 112%.
It gave 84.4% for remaining activity (STK17A (Homo sapiens, UniProt Q9UEE5)).
It gave 103% for remaining activity (EPHB1 (Homo sapiens, UniProt P54762)).
It gave 101% for remaining activity (CAMK2B (Homo sapiens, UniProt Q13554)).
Cyclin-dependent kinase 4, with cyclin D3 (CDK4, Homo sapiens, UniProt P11802) — remaining activity: 101%.
Cyclin-dependent kinase 1, with cyclin B (CDK1, Homo sapiens, UniProt P06493) — remaining activity: 87.7%.
It gave 103% for remaining activity (HIPK4 (Homo sapiens, UniProt Q8NE63)).
TSSK2 (Homo sapiens, UniProt Q96PF2) — remaining activity: 97.6%.

Block 2
Compound: CN(C(=O)c1ccccc1)c1cc(N(C)c2ccc3c(c2)CCc2ccc(C(=O)NCCN4CCOCC4)cc2C3=O)ccc1F
Observed: cell-free assay
Technique: competition with immobilised ligand
Tested at: 1 µM
It gave 82% for remaining binding (KIT (Homo sapiens, UniProt P10721, D816V)).
The remaining binding was 100% (PIK3CD (Homo sapiens, UniProt O00329)).
CLK4 (Homo sapiens, UniProt Q9HAZ1) — remaining binding: 95%.
The remaining binding was 100% (MAP4K5 (Homo sapiens, UniProt Q9Y4K4)).
TNK2 (Homo sapiens, UniProt Q07912) — remaining binding: 100%.
PIKFYVE (Homo sapiens, UniProt Q9Y2I7) — remaining binding: 63%.
EGFR (Homo sapiens, UniProt P00533, del752-759) — remaining binding: 100%.
For NEK11 (Homo sapiens, UniProt Q8NG66): remaining binding read 100%.
It gave 92% for remaining binding (Ribosomal protein S6 kinase alpha-2, C-terminal kinase domain (RPS6KA2, Homo sapiens, UniProt Q15349)).
It gave 50% for remaining binding (BMX (Homo sapiens, UniProt P51813)).
STK38 (Homo sapiens, UniProt Q15208) — remaining binding: 82%.
Ribosomal protein S6 kinase alpha-4, C-terminal kinase domain (RPS6KA4, Homo sapiens, UniProt O75676) — remaining binding: 100%.
For NTRK2 (Homo sapiens, UniProt Q16620): remaining binding read 100%.

Block 3
Compound: CC(C)n1cnc(-c2ccc(F)cc2)c1-c1ncc(C(=O)Nc2ccc(N3CCN(C)CC3)cc2)[nH]1
The “patients with adverse event” was 0% (measured: periorbital oedema, grade 3; idiopathic pulmonary fibrosis patients; dose not given, all compound arms pooled).
Phase 2a trial, measured: hypocalcaemia; human, idiopathic pulmonary fibrosis; all compound arms total, grade 2 — “patients with adverse event”: 0%.
Phase 2a trial, measured: hyperlipidaemia; human, idiopathic pulmonary fibrosis; all compound arms total, grade 5 — “patients with adverse event”: 0%.
It gave 0% for “patients with adverse event” (Phase 2a trial, measured: hepatobiliary disorders; human, idiopathic pulmonary fibrosis; all compound arms total, grade 4).
The “patients with adverse event” was 0% (Phase 2a trial, measured: hypertriglyceridaemia; human, idiopathic pulmonary fibrosis; 60 mg once daily, grade 4).

Block 4
Organism: Sarcocystis neurona
Observed: parasite growth
Tested at: 10 µM
The inhibition of `Nc1ccn([C@@H]2O[C@H](CO)[C@@H](O)[C@@H]2O)c(=O)n1` is reported as -40.9%.
`CCc1oc2ccccc2c1C(=O)c1cc(Br)c(O)c(Br)c1` has an inhibition of 2.9%.
The inhibition of `CO[C@H]1/C=C/O[C@@]2(C)Oc3c(C)c(O)c4c(O)c(c(/C=N/N5CCN(C)CC5)c(O)c4c3C2=O)NC(=O)/C(C)=C\C=C\[C@H](C)[C@H](O)[C@@H](C)[C@@H](O)[C@@H](C)[C@H](OC(C)=O)[C@@H]1C` is reported as -42.8%.
For `Cc1c(O)cccc1C(=O)N[C@@H](CSc1ccccc1)[C@H](O)CN1C[C@H]2CCCC[C@H]2C[C@H]1C(=O)NC(C)(C)C`, the inhibition was 62.6%.
With `OCCN1CCN(CCCN2c3ccccc3Sc3ccc(Cl)cc32)CC1` the inhibition was 89.8%.

For quick reference, copied from above (block 1):
It gave 103% for remaining activity (HIPK4 (Homo sapiens, UniProt Q8NE63)).
It gave 91.6% for remaining activity (Cyclin-dependent kinase 6, with cyclin D3 (CDK6, Homo sapiens, UniProt Q00534)).
